Measurements pooled from the literature.
Numbered parts are unrelated; each lists some results of a single study. Positions count from the first letter of the parent shown.

Block 1
Target: CCNB1, cyclin fold, Cln2 fusion (human)
Technique: yeast growth competition, sequencing
Medium: yeast
Notes: weak parent motif
Reference: not given
Direction: higher = stronger binding
Starting sequence: KIF20B docking peptide (human); KRAKRKLYTSEIS
| Substitution | normalised enrichment score |
| --- | --- |
| KRAKRKLYTSEIA [S13A] | 0.281 |
| KRAKAKLYTSEIS [R5A] | -0.0703 |
| KRAKRKLATSEIS [Y8A] | -0.0331 |
| KRAKRKLYASEIS [T9A] | 0.182 |
| ARAKRKLYTSEIS [K1A] | 0.434 |
| KRAKRALYTSEIS [K6A] | 0.438 |

Block 2
Target: TAR DNA-binding protein 43, full length, His tag (TARDBP, Homo sapiens, UniProt Q13148, residues 1-414)
Technique: RNA Bind-n-Seq
Form: RNA
Medium: in vitro
Concentration: 20 nM
Notes: 6-mer, flanks averaged, single round
With: 150 mM KCl
Reference: input library
Direction: higher = stronger binding
| Oligonucleotide | 6-mer enrichment (R) |
| --- | --- |
| ACUAGG | 1.03 |
| GUAAUU | 0.649 |
| UCCCUU | 0.667 |
| GCUAGU | 0.844 |
| GCGGAA | 1.64 |
| UGACAA | 0.676 |
| CCCUUU | 0.694 |
| GUUAGU | 0.828 |
| CAGCGC | 0.902 |
| GGCAUA | 0.997 |
| AAACUG | 0.637 |
| GGGUGC | 3.45 |
| CGUUGU | 0.704 |
| UUGAGU | 0.886 |
| ACUUCC | 0.566 |
| UAGUCU | 0.571 |
| AAACUA | 0.609 |
| UGAAGC | 0.789 |
| AUAGCG | 0.943 |
| CUACGA | 0.628 |
| AAUAAG | 0.962 |
| UCGAAC | 0.62 |

Block 3
Substance: PhoQ, residues 284 288 289 292 302 303 TYGVAM
Technique: Sort-seq
Item: YFP reporter
Medium: E. coli
Notes: PhoQ-PhoP variant library
With: 10 µM Mg2+
Reference: high Mg2+ state
Direction: higher = stronger signaling
| target | fold induction |
| --- | --- |
| PhoP, residues 12 14 15 18 19 TPWTL (Escherichia coli, UniProt P23836) | 13.1 |
| PhoP, residues 12 14 15 18 19 NFFVT (Escherichia coli, UniProt P23836) | 8.31 |
| PhoP, residues 12 14 15 18 19 LHHYF (Escherichia coli, UniProt P23836) | 33.5 |

Block 4
Target: ATF2, bZIP domain (human)
Technique: DHFR protein complementation
Medium: yeast
Notes: single substitutions, most at no-binding floor
Reference: wild-type JUN-FOS pair
Direction: higher = stronger binding
Starting sequence: JUN, bZIP domain (human); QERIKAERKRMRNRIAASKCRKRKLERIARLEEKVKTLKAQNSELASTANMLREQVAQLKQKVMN; partner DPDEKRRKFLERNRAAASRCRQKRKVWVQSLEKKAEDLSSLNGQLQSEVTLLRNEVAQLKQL
| Substitution | binding fitness [natural log] |
| --- | --- |
| M51T | -1.42 |
| Q41S | -1.52 |
| A57P | -1.49 |
| N42E | -1.46 |
| M51R | -1.25 |
| E54H | -1.33 |
| N42F | -1.47 |
| M51P | -1.51 |
| E44H | -1.5 |
| S47D | -1.36 |
| E33D | -1.31 |
| R53P | -1.51 |
| E44N | -1.47 |
| A46C | -1.38 |
| E32G | -1.43 |
| Q55V | -1.45 |
| E33V | -1.48 |
| L38I | -1.45 |
| T37W | -1.29 |
| S43P | -1.53 |
| K39C | -1.44 |
| K36D | -1.45 |

Block 5
Target: ABI1, truncated, D143A, DHFR fusion (Arabidopsis thaliana)
Technique: DHFR PCA, deep sequencing
Medium: yeast
Notes: methotrexate growth selection, single substitutions
With: (+)-ABA 4.8 µM
Reference: wild-type fitted maximum
Direction: higher = stronger binding
Starting sequence: PYL1, truncated, DHFR fusion (Arabidopsis thaliana); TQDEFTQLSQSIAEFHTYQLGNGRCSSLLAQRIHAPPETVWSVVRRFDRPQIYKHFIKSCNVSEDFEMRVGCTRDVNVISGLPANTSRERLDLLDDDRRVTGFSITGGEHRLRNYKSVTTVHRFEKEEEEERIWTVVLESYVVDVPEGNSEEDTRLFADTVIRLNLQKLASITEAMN; partner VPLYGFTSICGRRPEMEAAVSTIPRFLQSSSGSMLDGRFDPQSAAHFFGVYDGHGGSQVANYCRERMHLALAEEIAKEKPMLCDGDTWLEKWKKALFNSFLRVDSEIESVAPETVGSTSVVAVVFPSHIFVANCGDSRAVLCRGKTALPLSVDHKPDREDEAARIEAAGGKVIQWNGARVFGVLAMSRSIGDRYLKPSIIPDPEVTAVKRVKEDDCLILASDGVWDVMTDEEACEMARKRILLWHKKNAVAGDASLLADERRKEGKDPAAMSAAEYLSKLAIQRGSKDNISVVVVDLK
| Substitution | relative binding score [%] |
| --- | --- |
| R111E | -6.48 |
| T106S | 14.2 |
| V161N | 0.114 |
| D153V | -0.928 |
| G71Q | -17.9 |
| S80R | -2.3 |
| G108P | -7.66 |
| V40L | -2.51 |
| S26W | 39.3 |
| V78W | 55.8 |
| G102M | 9.46 |
| A35Q | 6.79 |
| K54L | -5.81 |
| E127M | 75.7 |
| N149G | 28.4 |
| T106Y | 65.7 |
| A30W | 71.4 |

Block 6
Target: Prothrombin, mature alpha-thrombin (F2, Homo sapiens, UniProt P00734)
Technique: aptamer microarray, sandwich
Form: DNA with 2'F-ANA
Medium: in vitro
Concentration: 200 nM
Notes: whole 15-mer aptamer, many near background
With: Cy3 exosite-II aptamer, 400 nM
Direction: higher = stronger binding
Oligonucleotide: GGTTGGTGTGGTTGG
| Modification | mean fluorescence intensity [a.u.] |
| --- | --- |
| 2'F-ANA at 1 2 4 5 7 8 10 13 15 | 55.2 |
| 2'F-ANA at 1 2 5 8 9 11 13 14 | 44.3 |
| 2'F-ANA at 2 4 5 6 7 8 11 13 14 | 45.9 |
| 2'F-ANA at 1 8 11 14 15 | 63.2 |
| 2'F-ANA at 1 5 7 8 10 | 50 |
| 2'F-ANA at 1 4 7 8 11 13 14 15 | 56.6 |
| 2'F-ANA at 2 3 4 5 6 8 9 12 13 | 114 |
| 2'F-ANA at 4 6 7 9 10 11 13 15 | 68.2 |
| 2'F-ANA at 1 2 4 5 7 10 13 14 | 47.8 |
| 2'F-ANA at 1 3 5 6 8 9 12 13 15 | 91.1 |
| 2'F-ANA at 2 4 7 8 10 11 14 | 64.2 |
| 2'F-ANA at 2 3 4 10 11 12 14 15 | 191 |
| 2'F-ANA at 4 5 8 11 12 | 130 |
| 2'F-ANA at 1 2 4 5 7 8 10 11 15 | 45.5 |
| 2'F-ANA at 2 3 5 6 13 14 | 53.9 |
| 2'F-ANA at 2 3 4 6 7 8 11 12 13 15 | 615 |
| 2'F-ANA at 4 6 7 8 11 12 13 14 | 95.8 |
| 2'F-ANA at 1 3 5 6 7 8 9 12 14 15 | 83.6 |
| 2'F-ANA at 1 5 6 11 12 15 | 90.7 |
| 2'F-ANA at 2 3 6 7 8 12 13 14 | 554 |
| 2'F-ANA at 1 2 3 8 9 10 11 12 14 | 58.1 |
| 2'F-ANA at 4 5 7 8 11 14 15 | 45.1 |
| 2'F-ANA at 1 2 3 4 5 7 9 11 12 15 | 121 |

Excerpt of the above (block 6):
| Modification | mean fluorescence intensity [a.u.] |
| --- | --- |
| 2'F-ANA at 1 2 3 8 9 10 11 12 14 | 58.1 |
| 2'F-ANA at 2 4 5 6 7 8 11 13 14 | 45.9 |
| 2'F-ANA at 4 6 7 9 10 11 13 15 | 68.2 |
| 2'F-ANA at 1 2 4 5 7 8 10 13 15 | 55.2 |
| 2'F-ANA at 2 3 6 7 8 12 13 14 | 554 |
| 2'F-ANA at 2 4 7 8 10 11 14 | 64.2 |
| 2'F-ANA at 1 2 4 5 7 8 10 11 15 | 45.5 |
| 2'F-ANA at 1 3 5 6 7 8 9 12 14 15 | 83.6 |
| 2'F-ANA at 4 5 7 8 11 14 15 | 45.1 |
